Published values of several laboratories.
Each line is one published result; not all experiments were run side by side. Numbers after ± are the reported error.

SMILES | cell line | assay | setting | how to read | quantity | value
CN(C)c1cc2ccccc2c(N)n1 | LX-2 | actinomycin D chase, qPCR, item: VEGFA | concentration not given, 6 h pretreatment |  | mRNA stability | no effect
COc1cc(CNC(=O)C[C@H](C)CCC=C(C)C)ccc1OCc1cn(-c2ccc(Br)cc2)nn1 | MCF7 breast cancer cells | SRB | 10 µM, 48 h |  | growth percent | 60.2%
CC(=O)O[C@H]1C2=C(C(=O)C(O)=C(C(C)C)C2=O)[C@@]2(C)CCCC(C)(C)[C@@H]2[C@@H]1O | NCI-H460/R P-gp overexpressing | MTT | 72 h |  | GI50 | 3.1 ± 0.4 µM
CCCCCCCCCC[N]1C(=O)c2cccc[n+]2[Ir]1[Cl].Cc1c(C)c(C)[c-](C)c1C | SH-SY5Y | SRB | concentration not given, 3 h, together with: MPP+ 1 mM 24 h | reference: MPP+ alone | cell viability | 1.2 fold
CC(=O)N[C@H]1C(n2cc([C@@](C)(O)c3cccc(F)c3)nn2)O[C@H](COCc2ccccc2)[C@H](OCc2ccccc2)[C@@H]1OCc1ccccc1 (stereo partly drawn) | JEG-3 | qPCR, item: p53, HDM2, p21, MIC-1 | 100 µM, 6 h | reference: vehicle | mRNA level | increased
CC(=O)[C@@]1(O)CC[C@H]2[C@@H]3CCC4=CC(=O)CC[C@]4(C)[C@H]3CC[C@@]21C | MDA-MB-231, GPR126-silenced, overexpressing W1081A mutant | inhibitor | 10 nM, 72 h |  | cell growth | inhibited
CC[C@H](C(=O)N1CCCC[C@H]1C(=O)O[C@H](CCc1ccc(OC)c(OC)c1)c1cccc(OCC(=O)NCCC(=O)N2CCN(CCCOc3cc4c(Nc5ccc(F)c(Cl)c5)ncnc4cc3OC)CC2)c1)c1cc(OC)c(OC)c(OC)c1 | HeLa FKBP12 F36V-PTPN2 knock-in | degrader | 5 µM, 4 days |  | decrease in viability | 48.5%
Cc1ccc2nc(-c3ccccc3)c(CN3CCOCC3)n2c1 | CRL8155 | cell growth or viability | 48 h |  | EC50 | > 50 µM
CCC/C(=C\C1=C(C(F)(F)F)C(=O)c2ccccc2C1=O)C(=O)N(CC)CC | NF90-8 cells | HIF1α reporter gene, luciferase reporter | 24 h, 1% oxygen hypoxia |  | EC50 | 5.7 ± 0.6 µM
Cc1nn(C)c(O)c1-c1nc2cc(Cl)c(Cl)cc2[nH]c1=O | TF-1 | annexin V | IC75, 24 h |  | apoptotic cells | ~30%
COc1cc(CNC(=O)C[C@H](C)CCC=C(C)C)ccc1OCc1cn(-c2cccc(Cl)c2)nn1 | A549/ATCC | SRB | 10 µM, 48 h |  | growth | 81.8%
O=Cc1c(O)ccc2ccccc12 | HUVEC | RNA sequencing, item: SLC6A9 | 75 µM, 24 h | reference: DMSO | log2 fold change | 3.15
CN[C@@H](C)C(=O)N[C@H]1CN(C(=O)Cc2ccccc2)CC[C@H]2CC[C@@H](C(=O)NCc3ccc(C(F)(F)F)cc3)N2C1=O | SK-OV-3 | apoptosis, annexin V/PI flow cytometry | 24 h |  | minimum effective concentration | 300 to 1000 nM
CC(C)c1cnn2c(NCc3ccccc3)cc(N[C@@H](CO)[C@H](O)CO)nc12 | HCT-116 resistant to compound | ABCB1 efflux function, calcein-AM | concentration not given | reference: parental HCT-116 | intracellular calcein decrease | 1.5 fold
COc1cc(CNC(=O)C[C@H](C)CCC=C(C)C)ccc1OCc1cn(-c2ccccc2Cl)nn1 | 786-0 | SRB | 10 µM, 48 h |  | growth | 87.7%
O=S(=O)(CC(F)(F)F)Nc1ccc(Oc2ncccc2-c2ccnc(N[C@H]3CCCNC3)n2)c2ccccc12 | INS1 cells with Dox-inducible IRE1α | IRE1α-induced decrease, RNA-Seq | 20 µM, together with: 5 ng/mL doxycycline |  | secretome transcript level | inhibited
COc1cc(CNC(=O)C[C@H](C)CCC=C(C)C)ccc1OCc1cn(-c2ccc(F)cc2)nn1 | MOLT-4 leukaemia cells | SRB | 10 µM, 48 h |  | growth percent | 67.5%
COc1ccc([C@@H]2CC(=O)c3c(O)cc(O[C@@H]4O[C@H](CO[C@@H]5O[C@@H](C)[C@H](O)[C@@H](O)[C@H]5O)[C@@H](O[C@H]5O[C@H](CO)[C@@H](O)[C@H](O)[C@H]5O)[C@H](O)[C@H]4O)cc3O2)cc1O | A549 | Matrigel Transwell invasion | 100 µg/mL, 24 h |  | invasion | 31.6 ± 5.7%
COc1cc(CNC(=O)C[C@H](C)CCC=C(C)C)ccc1OCc1cn(-c2ccccc2)nn1 | MOLT-4 leukaemia cells | SRB | 10 µM, 48 h |  | growth percent | 54.6%
CO[C@@H]1[C@@H](O[C@@H]2O[C@H](C)[C@@H](O[C@H]3C[C@@](C)(O)[C@@H](OC(=O)CN4CCOCC4)[C@H](C)O3)[C@H](N(C)C)[C@H]2O)[C@@H](CC=O)C[C@@H](C)[C@@H](O[C@H]2CC[C@H](N(C)C)[C@@H](C)O2)/C=C/C=C/C[C@@H](C)OC(=O)C[C@H]1O | GES-1 and HGC-27 | cell growth, CCK-8 | 72 h | reference: IC50 GES-1 over HGC-27 | selectivity index | 1.65
COc1cc(CNC(=O)C[C@H](C)CCC=C(C)C)ccc1OCc1cn(-c2ccc(C#N)cc2)nn1 | A549/ATCC | SRB | 10 µM, 48 h |  | growth | 48.2%
Cc1nn(-c2ccc(S(=O)(=O)N[C@H](CO)CC(C)C)cc2)c2nn3nnnc3nc12 | PC-3 | PI/Hoechst staining | 1 µM, 24 h |  | necrotic cells | 21.5 ± 3.56%
COc1cc(CNC(=O)C[C@H](C)CCC=C(C)C)ccc1OCc1cn(-c2ccc(Cl)c(Cl)c2)nn1 | A549/ATCC | SRB | 10 µM, 48 h |  | growth | 46.5%
COc1ccc(CC2COC(=O)C2Cc2ccc3c(c2)OCO3)cc1OC (mixture of isomers) | A2780cis | MTT | concentration not given, 72 h |  | viability | decreased

Some of these lines once more:
SMILES | cell line | assay | setting | how to read | quantity | value
Cc1ccc2nc(-c3ccccc3)c(CN3CCOCC3)n2c1 | CRL8155 | cell growth or viability | 48 h |  | EC50 | > 50 µM
Cc1nn(-c2ccc(S(=O)(=O)N[C@H](CO)CC(C)C)cc2)c2nn3nnnc3nc12 | PC-3 | PI/Hoechst staining | 1 µM, 24 h |  | necrotic cells | 21.5 ± 3.56%
COc1cc(CNC(=O)C[C@H](C)CCC=C(C)C)ccc1OCc1cn(-c2ccc(F)cc2)nn1 | MOLT-4 leukaemia cells | SRB | 10 µM, 48 h |  | growth percent | 67.5%
COc1cc(CNC(=O)C[C@H](C)CCC=C(C)C)ccc1OCc1cn(-c2ccccc2Cl)nn1 | 786-0 | SRB | 10 µM, 48 h |  | growth | 87.7%
